Experimental data from different studies.
A part holds a random share of what one study measured. Substitutions count along the parent as printed.

Set 1
Target: RNA binding protein fox-1 homolog 2, RRM domain, GST-SBP tag (RBFOX2, Homo sapiens, UniProt O43251-10, residues 100-194)
Technique: RNA Bind-n-Seq
Molecule type: RNA
Medium: in vitro
Tested at: 365 nM
Notes: natural RNA segment, single round, ends assumed
Baseline: no-protein control
Direction: higher = stronger binding
All sequences stand within: GGGAGUUCUACAGUCCGACGAUC … UGGAAUUCUCGGGUGCCAA
Target sequence (chain): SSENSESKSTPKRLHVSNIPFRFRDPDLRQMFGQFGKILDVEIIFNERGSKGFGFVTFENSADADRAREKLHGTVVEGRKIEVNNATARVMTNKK
Sequence | RBNS enrichment (R)
GGACGUUAGGCAGAGAGCUCAGAUGGCCCUUUUAAGGGGGCUCCAAGAACCAACAUCACUGCUCUUUUAGAUAAACCUCUGCCCUCCACUCCUUGCUUGAGUGGGUUAAA | 0.395
AGUUUUGUAGUUCCUCAGGCCUCUAAUUUAUUUUUUGCUUUCUGCUUUAUUGAUCUUUUGCAUGUCCCCCAAAGCCAGAAUCUGCUCAUGGAGGAAGGAAGGCUAAGAAC | 9.96
GGCUCUACUUAGCACACGCACAGUGGCACUAGGACCUGCGUGCCUGGCCCUCAGUGGGUAGGGCGGUGCUGCCUAGGCACACAGCAGCGCUUACGGGCCCCAGGUGCCUA | 0.297
UUCUUUCAUCUGUGGCUCAUCCCUGUAAAACUACGAAUCUGAGCCUCAAAUAAGCAGUAGUUUUUUUGUUGUUUAUUUUUAAUGAAACAGCUGUGUUAAGGCGCUGCUUC | 0.324
UCCACAGCCCACACGUGAGCUCCCUCCUCACCCCCAGGCAGGGAAGCCCCUCCUGCCAGUCCCUGUCCCCUUUCAGCCCACCAGUCCCUCUCUGCUGCCGGUGAUGGGAG | 0.793
UAUUACUUGAGUAUUUCUGUCUUUUCACAGAAAAACAUUGGGUUUCUCUCUGGGUUUGGACAUGAAAUGUAAGAAAAGAUUUUUCACUGGAGCAGCUCUCUUAAGGAGAA | 0.787
CUCACCGGUUUGUACAUUAUCUGUUGUCCUUUACUACUGUAAACAGUAAAUAUAGUUUGGUAUUCUGUCUCUUGGCCUAUGUUAAACACUGUAUUUGGAGACGGGUCAUA | 0.41
AAAAUGAUGCCCACAGUCUUGGGAAAAAUACCUGCUGGGAAGGAUGGCAUCUUUUCUGCGCGGUGGGGCUCCCGGAGAACUGGGCAUGCGCAUUGUGCCGUGGGGCUUAG | 0.425

Set 2
Target: CCNB3, cyclin fold, Cln2 fusion (human)
Technique: yeast growth competition, sequencing
Medium: yeast
Notes: weak parent motif
Baseline: not given
Direction: higher = stronger binding
Parent: ORC1 docking peptide (human); PRARKRLELGNLG; partner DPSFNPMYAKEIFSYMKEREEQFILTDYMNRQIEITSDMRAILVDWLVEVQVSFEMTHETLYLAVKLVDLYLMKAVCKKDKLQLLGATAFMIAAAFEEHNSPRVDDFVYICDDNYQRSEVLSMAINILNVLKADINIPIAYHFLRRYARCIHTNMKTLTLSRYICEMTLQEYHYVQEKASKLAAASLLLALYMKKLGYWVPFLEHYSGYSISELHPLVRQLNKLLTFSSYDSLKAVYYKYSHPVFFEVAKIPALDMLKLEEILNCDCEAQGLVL
Variant | normalised enrichment score
G10H | -0.0642
K5I | 0.539
L7D | 0.131
A3G | -0.443
A3P | 0.0158
L9E | -0.169
G13T | -0.0251
G10W | 0.753
N11Y | 0.74
K5Y | 0.0352
A3C | 0.504
L9K | 0.0317
G10K | 0.55

Set 3
Target: ABI1, truncated, D143A, DHFR fusion (Arabidopsis thaliana)
Technique: DHFR PCA, deep sequencing
Medium: yeast
Notes: methotrexate growth selection, single substitutions
Together with: (+)-ABA 17 µM
Baseline: wild-type fitted maximum
Direction: higher = stronger binding
Parent: PYL1, truncated, DHFR fusion (Arabidopsis thaliana); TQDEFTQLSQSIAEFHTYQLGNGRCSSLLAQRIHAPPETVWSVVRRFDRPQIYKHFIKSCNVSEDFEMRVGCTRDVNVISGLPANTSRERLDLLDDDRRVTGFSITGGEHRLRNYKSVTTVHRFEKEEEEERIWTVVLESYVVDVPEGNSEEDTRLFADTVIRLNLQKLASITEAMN; partner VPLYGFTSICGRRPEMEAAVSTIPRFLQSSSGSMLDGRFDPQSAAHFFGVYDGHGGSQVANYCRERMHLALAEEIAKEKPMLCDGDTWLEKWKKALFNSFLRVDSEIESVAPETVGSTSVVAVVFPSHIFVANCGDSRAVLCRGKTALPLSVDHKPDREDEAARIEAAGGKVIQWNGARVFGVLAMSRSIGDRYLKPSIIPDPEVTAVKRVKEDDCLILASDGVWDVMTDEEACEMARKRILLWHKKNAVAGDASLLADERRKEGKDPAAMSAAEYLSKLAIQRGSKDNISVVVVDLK
Variant | relative binding score
G102F | -7.02%
T86P | -8.03%
P146Y | 4.46%
S42P | 44.3%
S63H | 74.8%
G108S | 3.28%
K168E | 37.7%
G108Y | -3.34%
S80D | -2.68%
L112D | 5.07%
S87L | 4.72%
S171H | 91.3%
V142K | 43.7%
R24C | 71.5%

Mixed results
Molecule | target | test | test system | setting | scale | quantity | value
PhoQ, residues 284 288 289 292 302 303 AGHLVA | PhoP, residues 12 14 15 18 19 NMSSL (Escherichia coli, UniProt P23836) | Sort-seq, refers to: YFP reporter | E. coli | PhoQ-PhoP variant library, together with: 10 µM Mg2+ | baseline: high Mg2+ state, higher = stronger signaling | fold induction | 15.6

A few entries again (set 3):
Variant | relative binding score
G108Y | -3.34%
T86P | -8.03%
K168E | 37.7%
